Measured values of several laboratories.
Lines come from different studies, so protocols differ. Numbers after ± are the reported error.
Organism: HIV-1

CC(=O)CCC1C(=O)NC(C(C)C)C(=O)NC(Cc2cccc(O)c2)C(=O)N2CCCC(N2)C(=O)OC(C(C)=CC=CC(=O)N2CCCCO2)CC=CC=CC(O)C(C)C1O (stereo not shown)  maximal inhibition (viral replication; CD4 HeLa): > 95%
CN1CCn2cc(C(=O)NCc3ccc(F)cc3F)c(=O)c(O)c2C1=O  fold loss of potency (single-round infection; integrase G140S/Q148H vector; reference: cpd over dolutegravir): ~17 fold
CC(=O)N[C@@H](CS)C(=O)N[C@@H](CO)C(=O)N[C@@H](CO)C(=O)N[C@@H](Cc1c[nH]c2ccccc12)C(=O)N[C@@H](Cc1ccc(O)cc1)C(=O)N1CCC[C@H]1C(=O)N[C@@H](Cc1ccccc1)C(=O)N[C@@H](CO)C(=O)N[C@@H](CCC(N)=O)C(=O)N[C@@H](Cc1ccc(O)cc1)C(=O)N[C@@H](CCC(N)=O)C(=O)N[C@@H](Cc1c[nH]c2ccccc12)C(=O)N[C@@H](Cc1c[nH]c2ccccc12)C(=O)N[C@@H](CCCCN)C(N)=O  neutralisation activity (YU2 pseudovirus (R5); concentration not given): active
N=C(N)NCCC[C@@H]1NC(=O)[C@H](Cc2ccc(O)cc2)NC(=O)[C@H](CO)N2CC[C@@H](C2=O)N2CC[C@H](NC(=O)[C@@H]3CCCN3C(=O)[C@H](Cc3ccc(O)cc3)NC1=O)C2=O  proviral integration (Alu-PCR qPCR; HeLa-CD4; concentration not given, 18 h): inhibited
CC(=O)N[C@@H](CS)C(=O)N[C@@H](CO)C(=O)N[C@@H](CO)C(=O)N[C@@H](Cc1c[nH]c2ccccc12)C(=O)N[C@@H](Cc1ccccc1)C(=O)N1CCC[C@H]1C(=O)N[C@@H](Cc1ccccc1)C(=O)N[C@@H](CO)C(=O)N[C@@H](CCC(N)=O)C(=O)N[C@@H](Cc1ccc(O)cc1)C(=O)N[C@@H](CCC(N)=O)C(=O)N[C@@H](Cc1c[nH]c2ccccc12)C(=O)N[C@@H](Cc1c[nH]c2ccccc12)C(=O)N[C@@H](CCCCN)C(N)=O  neutralisation activity (NL4-3 (X4); concentration not given): active
Cc1ccc2c(N)c(C(=O)Nc3cccc(C(F)(F)F)c3)sc2n1  minimal selectivity index (CEM-SS, RF; reference: highest non-toxic concentration over EC50): ≥ 36
CC[C@H](C)[C@H](NC(=O)[C@H](C)NC(=O)[C@H](CCC(=O)O)NC(C)=O)C(=O)N[C@H](C(=O)N[C@@H](CCCNC(=N)N)C(=O)NC1CCCC=CCCCC(C(=O)N[C@@H](CC(C)C)C(=O)N[C@@H](Cc2ccccc2)C(=O)N[C@H](C(=O)N[C@@H](Cc2c[nH]cn2)C(=O)N[C@@H](Cc2ccccc2)C(=O)N[C@@H](CCCNC(=N)N)C(=O)N[C@H](C(=O)NCC(N)=O)[C@@H](C)CC)[C@@H](C)CC)NC(=O)[C@H](CCC(N)=O)NC(=O)[C@H](CCC(N)=O)NC(=O)[C@H](CC(C)C)NC1=O)[C@@H](C)CC (stereo partly shown)  active concentration (viral replication, luciferase reporter; MT-4, NL4-3): 10 µM
O=P(O)(O)Oc1c2c(c(OP(=O)(O)O)c3c1C1CC3c3cc4ccccc4cc31)C1CC2c2cc3ccccc3cc21  enhancement of infection (inhibitor; TZM-bl; 20-fold molar excess, added: PAP85-120 and SEM1 fibrils): inactive
CC(C)C[C@@H]1NC(=O)[C@H](CCCCN)NC(=O)[C@H](CC(C)C)NC(=O)[C@@](C)(NC(=O)[C@H](Cc2ccccc2)NC(=O)[C@H](Cc2ccc(O)cc2)NC(=O)[C@H](C)NC(=O)[C@@H](N)[C@@H](C)O)CCCC=CCCC[C@@](C)(C(=O)NCC(=O)N[C@@H](CCCNC(=N)N)C(=O)N[C@@H](Cc2c[nH]c3ccccc23)C(N)=O)NC1=O  EC50: 20 µM
O=C(NCc1ccc(F)cc1F)c1c(O)c2cccnc2n(O)c1=O  EC50 (viral replication, lentiviral vector; wild-type integrase; 5% FBS): 0.0062 ± 0.0029 µM
Cc1nc([C@H](NC(=O)c2ccc(-c3ccc(Cl)cc3)[nH]2)[C@@H]2CCCCN2)sc1CO  sensitive viruses (viral entry; TZM-bl, panel of 56 Env pseudoviruses; up to 2 µM): 68%
Cl.Cl.Cl.Cl.Cl.Cl.Cl.Cl.Cl.Cl.Cl.Cl.NC[C@@H]1O[C@H](O[C@H]2[C@@H](O)[C@H](O[C@@H]3[C@@H](O)[C@H](N)C[C@H](N)[C@H]3O[C@H]3O[C@H](CN)[C@@H](O)[C@H](O)[C@H]3N)O[C@@H]2Cn2cc(CCCCCCc3cn(C[C@H]4O[C@@H](O[C@@H]5[C@@H](O)[C@H](N)C[C@H](N)[C@H]5O[C@H]5O[C@H](CN)[C@@H](O)[C@H](O)[C@H]5N)[C@H](O)[C@@H]4O[C@H]4O[C@@H](CN)[C@@H](O)[C@H](O)[C@H]4N)nn3)nn2)[C@H](N)[C@@H](O)[C@@H]1O  protection (reverse transcriptase release; MT-2, NL4-3; concentration not given, day 6; reference: virus control): ≥ 20%
CC[C@H](C)[C@H](N)C(=O)N[C@@H](CO)C(=O)N[C@@H](Cc1ccccc1)C(=O)N[C@@H]1CSCc2ccc(cc2)-c2ccc(cc2)CSC[C@@H](C(=O)N[C@@H](CCC(=O)O)C(=O)N[C@@H](CO)C(=O)NCC(=O)N[C@@H](CO)C(N)=O)NC(=O)[C@H](Cc2ccc(O)cc2)NC(=O)[C@H](Cc2ccc(O)cc2)NC(=O)[C@H](CC(=O)O)NC(=O)[C@H](CC(C)C)NC(=O)[C@H](CC(C)C)NC(=O)[C@H](CCC(=O)O)NC1=O  IC50 (viral entry, single-cycle pseudovirus; Env Du156, subtype C): 17.9 ± 1.7 µM
